Results from different studies.
Parts stem from different laboratories: compare values within a part only. Changes are numbered by the printed parent chain.

Set 1 — technique: RNA Bind-n-Seq; molecule type: RNA; matrix: in vitro; tested at: 365 nM; baseline: no-protein control; direction: higher = stronger binding
Target: RNA binding protein fox-1 homolog 2, RRM domain, GST-SBP tag (RBFOX2, Homo sapiens, UniProt O43251-10, residues 100-194)
Notes: natural RNA segment, single round, ends assumed
All sequences stand within: GGGAGUUCUACAGUCCGACGAUC … UGGAAUUCUCGGGUGCCAA
Residues (chain): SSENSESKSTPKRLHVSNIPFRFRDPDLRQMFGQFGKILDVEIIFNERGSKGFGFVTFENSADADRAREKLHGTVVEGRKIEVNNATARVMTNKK
| Sequence | RBNS enrichment (R) |
| --- | --- |
| UUUCAUUUUGUAAAAUCUCAGUUAAUUUUUCUUUAUUGGUAUAUUUGUGUAUGCGAGACAAAUCCUGUAUUGUACAGGAUAUAAAUAGAUGCAUAAAUCCUUAGAUACCU | 0.928 |
| GCUUGGAUUUUAUGCAGUAGGCUUUACUACAGUACAUGGCUAAUCUUCCCCAAACUAGCUCAUUAAAGAUGAAAUAGACCAGCUCUCUUCAGUGAAGAGGACAAAUAGUU | 0.316 |
| GUCAUGGGACCUCAGUAACGAGGACCCCUAAUUUAUAAAGUACCAGAAAUGUGGGGAAGAAAGCAAUUUGAGCAGUAUGUAGCCUACUCACAUGGGCUCUUUUUCAGGUU | 0.807 |
| AUGUCCUUUAUAAGGUAUACUUGGAUUGGCCGAGACCUGGCCUGGCAUCAGGAGUCCAAACCUCUGAGGUCUGAUCUCUGCUCUGUCAAGGACUUUCGGCAAGUCUCGUG | 0.692 |
| GCUGCUUCUUCAGUUCCUAAUACCAGACCAAGCCUCCUGAUGCCUUUCUGCACUGCAACUGUGUGAUUGAAAAAUGAGAUGUUCAUCCAAGCAGUCAAGCCACAGAAACC | 0.509 |
| CCUCAGCUGUUCCUUGCUGGUAUACCUCAGAAGUGGAAUGUCAGAGUGGGCUACUAGAGACCUCUGACCCCAGCAGCACUGGCUUGCCCUCAUAUGUGGGGUGUAGUCAC | 0.328 |
| GUUAGAAGAAAACAAUCACAAAACUGAAGCCUAGAGAGAAACUGUCCUAGUUGUCCAGGGAUAAAAAUCAUAUAGACCAAUUGAAGCAUGAACGUGGAUUGUAUUUAAGA | 9.86 |
| AGCUUGUGGGGGUGGGUGGGCAGGUUCUAGGGCUGGUCAUCUGCUGCCCUGUGCAUGAGGUCCCCUGAAGCCGCAAUACAUGACCACCCUUCUACUACUUGCUAUUACCU | 2.64 |
| AUGAAUUCUAGAUACAGCUACUUAUGGAUUCAUCAAUAUCAUGAGCACUUUUGCUGGUUCCAGUCAAUCAAUGGCAUUUAAUAAAUUUUUUAAGAAGUAAAAAUACAUGU | 0.658 |
| AAAGAUUAAAUUCUCCAAUGAUAUUUUAAAAAAUAUCAACCUACAUGCACUUUAGAAUGUAAAAUAACAAUGACUAUUUUAAACUCGAAGACCCACUAUUUUGAGUAUUU | 0.883 |
| AAGAUUCCAUGGAUUUACGGUGCCUGCAUUCCACAUAGCCAGAGACUUAGCUUUGUAUUUCAAAUGAAUUUGCAUAAAACCUGUUCAUCUUUAGCACCUUAUAGACAAAA | 0.725 |
| GGUGCCAGGAAAUUGAUUUUGGAAAAAGUGAAAUAACAUUAAAGGUGAAUGUGAGGCUUCUACUUUUAUCCAAAAGGAGCUAUAUUAGCUAGGCUGUUUCUGAUAUCCAA | 0.673 |

Set 2 — technique: protein binding microarray; molecule type: double-stranded DNA, one strand shown; matrix: in vitro; tested at: not given; baseline: not given; direction: higher = stronger binding
Target: Histone acetyltransferase KAT6A, both winged helices, GST fusion (KAT6A, Homo sapiens, UniProt Q92794, residues 1-181)
Notes: 8-mer, flanks averaged, mean of 2 arrays, mostly near background
Target sequence (chain): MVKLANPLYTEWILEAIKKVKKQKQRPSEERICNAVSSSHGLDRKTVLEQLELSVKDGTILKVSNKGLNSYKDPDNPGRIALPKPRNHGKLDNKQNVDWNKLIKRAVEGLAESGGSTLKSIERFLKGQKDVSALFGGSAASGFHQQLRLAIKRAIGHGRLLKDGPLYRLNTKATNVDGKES
| Sequence | E-score |
| --- | --- |
| CCCGGGTC | 0.281 |
| ACCCGGAT | -0.0315 |
| ATCCGCAG | 0.133 |
| GTACGATA | -0.0589 |
| TTCTTAAA | -0.158 |
| CATCTTAA | -0.156 |
| ACAGGAGA | -0.17 |
| AAGGTAGA | -0.193 |
| AGAGGAAG | -0.223 |
| GTCCTACA | -0.0872 |
| CGGGTTCC | 0.247 |
| GAAAATGA | -0.0579 |
| TTGAAAAA | -0.0918 |
| CCCTGCGC | 0.194 |
| AGTCACCC | -0.138 |
| TAGGCCTA | -0.0973 |
| GCGACCAA | 0.0689 |
| GGAACTAA | 0.0444 |
| CAAGCAGG | -0.0862 |
| AAATATGA | -0.167 |
| GGTACAAC | -0.0283 |
| AATTCCCC | 0.0336 |
| CGGCTTGC | 0.204 |
| ACATAGCG | 0.162 |
| AAAATTGT | -0.178 |

Set 3 — technique: DHFR PCA, deep sequencing; matrix: yeast; together with: (+)-ABA 0.11 µM; baseline: wild-type fitted maximum; direction: higher = stronger binding
Target: ABI1, truncated, D143A, DHFR fusion (Arabidopsis thaliana)
Notes: methotrexate growth selection, single substitutions
Starting sequence: PYL1, truncated, DHFR fusion (Arabidopsis thaliana); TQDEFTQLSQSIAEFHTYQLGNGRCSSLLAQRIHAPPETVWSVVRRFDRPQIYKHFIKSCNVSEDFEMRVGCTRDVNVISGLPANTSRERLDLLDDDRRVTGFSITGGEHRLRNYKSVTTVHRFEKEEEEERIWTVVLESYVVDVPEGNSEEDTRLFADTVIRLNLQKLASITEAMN; partner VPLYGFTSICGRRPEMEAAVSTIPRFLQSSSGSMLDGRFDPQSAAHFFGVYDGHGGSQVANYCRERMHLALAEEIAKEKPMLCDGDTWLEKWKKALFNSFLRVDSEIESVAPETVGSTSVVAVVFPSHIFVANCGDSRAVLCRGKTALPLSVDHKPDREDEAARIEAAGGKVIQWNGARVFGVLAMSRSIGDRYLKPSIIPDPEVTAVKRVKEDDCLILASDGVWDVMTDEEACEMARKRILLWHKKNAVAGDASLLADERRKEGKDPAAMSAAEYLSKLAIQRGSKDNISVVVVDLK
| Variant | relative binding score [%] |
| --- | --- |
| S11T | 38.1 |
| R74E | 2.88 |
| R69I | 28.1 |
| V76W | 3.96 |
| E89Q | -0.697 |
| A84C | 41.2 |
| D153M | -3.81 |
| D97H | 26.3 |
| R90P | 0.233 |
| V76G | -1.51 |

Set 4 — target: CCND3, cyclin fold, Cln2 fusion (human); technique: yeast growth competition, sequencing; matrix: yeast; notes: weak parent motif; baseline: not given; direction: higher = stronger binding
Starting sequence: BRCA2 docking peptide (human); PSIKRNLLNEFDR
| Variant | normalised enrichment score |
| --- | --- |
| R5L | 0.0382 |
| R5I | 0.124 |
| N9A | 0.216 |
| L7S | 0.0544 |
| N6W | 0.0862 |
| L8F | 0.167 |
| D12R | 0.174 |
| K4H | 0.153 |
| I3W | 0.0682 |
| L7Q | 0.201 |
| P1W | 0.272 |
| S2K | 0.149 |
| L7E | 0.0685 |
| F11W | 0.0509 |
| R13H | 0.0245 |
| R5S | 0.12 |
| D12M | 0.176 |
| S2C | 0.103 |
| R13C | 0.0647 |
| L7A | 0.113 |
| P1L | -0.0162 |
| N6R | 0.182 |
| P1K | 0.127 |
| R5K F11L | -0.467 |
| I3H | 0.102 |

Mixed results
| Substance | tested on | assay | test system | conditions | how to read | measurement | value |
| --- | --- | --- | --- | --- | --- | --- | --- |
| PLRG1 (Homo sapiens, UniProt O43660) | SNW1 (Homo sapiens, UniProt Q13573) | cross-linking MS | cell fractions | together with: DSSO | – | cross-linked residues | K363 to S154 |
| PhoQ, residues 284 288 289 292 302 303 SSTMSV | PhoP, residues 12 14 15 18 19 TTLRV (Escherichia coli, UniProt P23836) | Sort-seq, item: YFP reporter | E. coli | PhoQ-PhoP variant library, together with: 10 µM Mg2+ | baseline: high Mg2+ state, higher = stronger signaling | fold induction | 4.65 |

Excerpt of the above (set 3):
| Variant | relative binding score [%] |
| --- | --- |
| A84C | 41.2 |
| D153M | -3.81 |
| D97H | 26.3 |
| R90P | 0.233 |
| V76G | -1.51 |
